Measurements of several laboratories.
Each line is one published result; not all experiments were run side by side. Several values in a cell are separate wells, animals, samples, runs or records. ± gives the spread as reported.
PSMB6: Proteasome subunit beta type-6 (PSMB6, Homo sapiens, UniProt P28072)
UniProt P28072, sequence (whole entry, looked up): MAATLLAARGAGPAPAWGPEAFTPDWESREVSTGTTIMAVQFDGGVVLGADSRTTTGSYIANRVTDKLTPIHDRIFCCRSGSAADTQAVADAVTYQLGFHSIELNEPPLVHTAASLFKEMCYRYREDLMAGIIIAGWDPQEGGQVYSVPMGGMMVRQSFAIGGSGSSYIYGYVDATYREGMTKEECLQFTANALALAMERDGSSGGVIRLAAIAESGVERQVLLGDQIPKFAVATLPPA
KCNH2: Voltage-gated inwardly rectifying potassium channel KCNH2 (KCNH2, Homo sapiens, UniProt Q12809)
UniProt Q12809, sequence (whole entry, looked up): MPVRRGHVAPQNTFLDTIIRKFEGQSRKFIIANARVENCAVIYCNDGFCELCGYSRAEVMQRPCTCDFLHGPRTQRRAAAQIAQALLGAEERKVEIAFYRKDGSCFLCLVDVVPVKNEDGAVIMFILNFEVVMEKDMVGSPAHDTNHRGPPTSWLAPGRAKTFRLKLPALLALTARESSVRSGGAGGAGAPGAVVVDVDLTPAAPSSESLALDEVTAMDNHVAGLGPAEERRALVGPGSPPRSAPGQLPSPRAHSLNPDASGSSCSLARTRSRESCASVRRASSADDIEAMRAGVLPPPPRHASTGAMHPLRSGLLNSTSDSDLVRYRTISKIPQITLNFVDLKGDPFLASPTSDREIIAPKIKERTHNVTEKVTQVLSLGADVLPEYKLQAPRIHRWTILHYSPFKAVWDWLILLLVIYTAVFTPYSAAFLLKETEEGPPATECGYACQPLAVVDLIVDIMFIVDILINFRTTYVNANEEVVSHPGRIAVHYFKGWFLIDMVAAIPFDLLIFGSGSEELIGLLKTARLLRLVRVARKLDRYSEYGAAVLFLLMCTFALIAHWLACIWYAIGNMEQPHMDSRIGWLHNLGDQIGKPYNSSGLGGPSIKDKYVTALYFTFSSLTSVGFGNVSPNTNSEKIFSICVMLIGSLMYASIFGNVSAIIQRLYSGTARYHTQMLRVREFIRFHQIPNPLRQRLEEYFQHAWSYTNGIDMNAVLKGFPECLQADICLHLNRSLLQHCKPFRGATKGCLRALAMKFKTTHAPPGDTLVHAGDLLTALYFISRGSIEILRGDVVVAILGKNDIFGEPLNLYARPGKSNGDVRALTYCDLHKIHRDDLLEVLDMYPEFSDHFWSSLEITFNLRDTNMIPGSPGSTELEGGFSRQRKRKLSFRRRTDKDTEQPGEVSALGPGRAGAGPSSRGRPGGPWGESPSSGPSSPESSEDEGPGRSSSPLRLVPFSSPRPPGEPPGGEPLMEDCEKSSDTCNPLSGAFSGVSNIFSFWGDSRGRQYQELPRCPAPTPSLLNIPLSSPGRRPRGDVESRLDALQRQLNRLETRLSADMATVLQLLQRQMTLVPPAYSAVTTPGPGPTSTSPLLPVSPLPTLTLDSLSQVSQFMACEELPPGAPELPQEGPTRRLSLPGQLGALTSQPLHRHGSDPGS
CA1: Carbonic anhydrase 1 (CA1, Homo sapiens, UniProt P00915)
UniProt P00915, sequence (whole entry, looked up): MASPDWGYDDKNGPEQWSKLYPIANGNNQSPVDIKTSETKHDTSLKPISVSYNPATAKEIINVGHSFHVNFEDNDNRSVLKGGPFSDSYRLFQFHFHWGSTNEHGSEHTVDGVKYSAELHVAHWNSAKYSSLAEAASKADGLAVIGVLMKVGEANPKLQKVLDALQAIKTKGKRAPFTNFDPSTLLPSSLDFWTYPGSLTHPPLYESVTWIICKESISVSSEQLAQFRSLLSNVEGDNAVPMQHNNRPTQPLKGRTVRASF
CSK: Tyrosine-protein kinase CSK (CSK, Homo sapiens, UniProt P41240)
UniProt P41240, sequence (whole entry, looked up): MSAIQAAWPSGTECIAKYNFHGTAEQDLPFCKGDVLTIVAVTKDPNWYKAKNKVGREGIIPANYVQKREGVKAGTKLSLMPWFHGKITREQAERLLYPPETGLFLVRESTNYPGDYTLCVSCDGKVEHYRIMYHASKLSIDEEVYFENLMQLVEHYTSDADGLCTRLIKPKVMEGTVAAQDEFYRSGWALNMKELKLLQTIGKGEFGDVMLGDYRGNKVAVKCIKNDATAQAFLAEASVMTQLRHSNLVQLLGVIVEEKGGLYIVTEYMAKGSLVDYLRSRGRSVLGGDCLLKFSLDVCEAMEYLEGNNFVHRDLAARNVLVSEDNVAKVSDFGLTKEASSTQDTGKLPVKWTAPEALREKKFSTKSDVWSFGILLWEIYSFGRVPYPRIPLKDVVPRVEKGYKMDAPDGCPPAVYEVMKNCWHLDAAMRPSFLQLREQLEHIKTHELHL
PLA2G5: Phospholipase A2 group V (PLA2G5, Homo sapiens, UniProt P39877)
UniProt Q9UNQ0, sequence (whole entry, looked up): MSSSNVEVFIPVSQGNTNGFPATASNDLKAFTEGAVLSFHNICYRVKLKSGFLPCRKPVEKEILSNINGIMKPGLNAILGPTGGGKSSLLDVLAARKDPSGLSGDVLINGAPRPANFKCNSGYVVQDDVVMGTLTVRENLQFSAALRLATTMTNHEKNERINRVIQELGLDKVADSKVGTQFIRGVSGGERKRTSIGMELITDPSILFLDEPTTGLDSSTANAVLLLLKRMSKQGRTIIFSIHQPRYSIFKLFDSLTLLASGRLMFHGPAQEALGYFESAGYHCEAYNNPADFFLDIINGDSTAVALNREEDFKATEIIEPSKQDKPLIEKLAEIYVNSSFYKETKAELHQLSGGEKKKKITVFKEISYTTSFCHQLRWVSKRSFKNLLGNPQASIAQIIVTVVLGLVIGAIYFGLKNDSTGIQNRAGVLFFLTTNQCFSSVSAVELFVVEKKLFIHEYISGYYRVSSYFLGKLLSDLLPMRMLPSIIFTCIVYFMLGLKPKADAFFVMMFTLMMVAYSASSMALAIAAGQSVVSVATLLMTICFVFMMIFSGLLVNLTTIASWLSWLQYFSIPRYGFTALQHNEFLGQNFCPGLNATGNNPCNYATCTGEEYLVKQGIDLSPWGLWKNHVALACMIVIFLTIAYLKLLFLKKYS
UniProt P39877, sequence (whole entry, looked up): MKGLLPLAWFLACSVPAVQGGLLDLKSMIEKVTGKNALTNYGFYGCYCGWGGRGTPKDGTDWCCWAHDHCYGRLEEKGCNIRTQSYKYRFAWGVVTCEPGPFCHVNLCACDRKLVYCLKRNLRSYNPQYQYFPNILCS
UniProt Q05940, sequence (whole entry, unmodified, looked up): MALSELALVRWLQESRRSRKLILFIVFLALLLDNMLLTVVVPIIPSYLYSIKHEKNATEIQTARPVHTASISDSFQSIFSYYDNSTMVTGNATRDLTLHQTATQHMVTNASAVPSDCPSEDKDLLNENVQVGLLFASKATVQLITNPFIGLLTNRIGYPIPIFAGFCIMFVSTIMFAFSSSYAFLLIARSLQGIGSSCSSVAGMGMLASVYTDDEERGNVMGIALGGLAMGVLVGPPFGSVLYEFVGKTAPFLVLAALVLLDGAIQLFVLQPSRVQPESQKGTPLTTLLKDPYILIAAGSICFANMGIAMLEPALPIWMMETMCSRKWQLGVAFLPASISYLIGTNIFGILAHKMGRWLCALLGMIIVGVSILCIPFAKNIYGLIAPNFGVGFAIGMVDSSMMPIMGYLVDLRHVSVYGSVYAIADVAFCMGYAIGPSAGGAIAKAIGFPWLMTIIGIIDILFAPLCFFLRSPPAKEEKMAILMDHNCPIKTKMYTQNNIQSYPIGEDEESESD
UniProt Q8IWT6, sequence (whole entry, unmodified, looked up): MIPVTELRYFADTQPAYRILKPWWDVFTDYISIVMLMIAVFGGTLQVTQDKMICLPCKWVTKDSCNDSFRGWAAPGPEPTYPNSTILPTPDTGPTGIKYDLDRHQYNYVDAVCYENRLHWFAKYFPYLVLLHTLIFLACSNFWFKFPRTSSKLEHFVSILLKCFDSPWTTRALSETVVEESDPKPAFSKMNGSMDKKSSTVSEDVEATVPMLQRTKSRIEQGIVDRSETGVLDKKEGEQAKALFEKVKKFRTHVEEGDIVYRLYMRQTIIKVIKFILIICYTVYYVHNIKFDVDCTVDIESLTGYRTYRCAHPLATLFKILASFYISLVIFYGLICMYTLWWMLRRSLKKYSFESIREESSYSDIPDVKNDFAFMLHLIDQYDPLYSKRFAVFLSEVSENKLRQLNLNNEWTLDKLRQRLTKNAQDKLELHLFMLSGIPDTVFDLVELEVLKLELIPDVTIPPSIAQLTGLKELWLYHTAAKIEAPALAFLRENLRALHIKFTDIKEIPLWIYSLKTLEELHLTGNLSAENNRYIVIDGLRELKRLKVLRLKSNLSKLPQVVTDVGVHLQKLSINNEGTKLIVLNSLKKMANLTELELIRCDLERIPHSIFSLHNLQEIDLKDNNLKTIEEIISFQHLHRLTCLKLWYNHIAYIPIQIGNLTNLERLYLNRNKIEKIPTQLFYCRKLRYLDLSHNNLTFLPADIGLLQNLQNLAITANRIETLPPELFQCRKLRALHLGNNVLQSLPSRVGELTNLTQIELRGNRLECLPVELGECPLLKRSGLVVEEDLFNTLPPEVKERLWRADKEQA
UniProt O15151, sequence (whole entry, unmodified, looked up): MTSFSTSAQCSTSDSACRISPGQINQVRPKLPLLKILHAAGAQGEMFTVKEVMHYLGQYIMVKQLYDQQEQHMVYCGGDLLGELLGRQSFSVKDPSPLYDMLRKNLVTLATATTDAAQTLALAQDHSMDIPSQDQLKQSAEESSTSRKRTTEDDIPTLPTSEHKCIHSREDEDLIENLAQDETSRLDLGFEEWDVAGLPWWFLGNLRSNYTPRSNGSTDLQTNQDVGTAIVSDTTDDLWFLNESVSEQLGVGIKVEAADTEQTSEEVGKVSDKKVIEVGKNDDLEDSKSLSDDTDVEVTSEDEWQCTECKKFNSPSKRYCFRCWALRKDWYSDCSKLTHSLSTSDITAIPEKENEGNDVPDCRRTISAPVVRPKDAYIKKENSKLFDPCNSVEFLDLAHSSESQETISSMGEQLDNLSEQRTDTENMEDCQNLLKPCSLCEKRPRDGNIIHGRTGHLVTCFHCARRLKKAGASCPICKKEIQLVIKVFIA
UniProt P38075, sequence (whole entry, looked up): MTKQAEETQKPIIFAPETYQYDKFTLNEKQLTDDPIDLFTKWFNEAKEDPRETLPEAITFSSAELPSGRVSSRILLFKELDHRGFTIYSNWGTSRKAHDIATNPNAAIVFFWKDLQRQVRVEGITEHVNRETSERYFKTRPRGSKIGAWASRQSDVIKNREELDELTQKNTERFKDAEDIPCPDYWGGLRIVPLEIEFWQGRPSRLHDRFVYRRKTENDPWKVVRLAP

Structure (SMILES) | target | assay | system | setting | IC50
O=C(Nc1cccc2c(=O)cc(-c3nnn[nH]3)oc12)c1ccc(OCCCCc2ccccc2)cc1 | LRRC8A/LRRC8C (Homo sapiens, UniProt Q8IWT6+Q8TDW0, Y124F/Y126F) | ion current, inhibitor, whole-cell patch clamp | HCT116 LRRC8-/- transfected | at -100 mV | 45.1 µM
Cc1ccc(S(=O)(=O)n2cc(/C=N/NC(=S)Nc3ccccc3C)c3ccccc32)cc1 | mushroom tyrosinase | enzyme activity, inhibitor |  | with: L-DOPA substrate | 24.3 ± 0.51 µM
Cc1cnc(-c2ccc(-c3ccc(NC(=O)Nc4c(F)cc(F)cc4F)cc3F)c3c2C(=O)NC3)[nH]1 | KIT (Homo sapiens, UniProt P10721) | enzyme activity, inhibitor, mobility shift |  | with: ATP 1 mM | 0.0908 µM
FC(F)(F)Oc1ccc(Oc2ccnc(N3CCC(NC(=S)Nc4cccnc4)CC3)c2Cl)c(Cl)c1 | Abhd12 (Mus musculus, UniProt Q99LR1) | lyso-PS hydrolysis, inhibitor | transfected HEK293T membrane lysate |  | 0.027 µM
OC[C@@H]1[C@@H](O)[C@H](O)[C@@H](O)[C@@H]2O[C@H]12 | Oligosaccharide 4-alpha-D-glucosyltransferase (agd31B, Cellvibrio japonicus, UniProt B3PEE6) | enzyme activity, inhibitor |  | 30 min preincubation, pH 6.5, 25 °C | > 100 µM
CC(C)C[C@H](NC(=O)[C@H](Cc1ccccc1)N=[N+]=[N-])C(=O)N[C@@H](CC(F)(F)F)C(=O)N[C@H](/C=C/S(C)(=O)=O)Cc1ccc(CN)cc1 | PSMB6 | competitive ABPP | Raji cell lysate |  | > 10 µM
c1ccc(CN(CCN(Cc2ccccn2)Cc2ccccn2)Cc2ccccn2)cc1 | Proteasome subunit beta type-6, caspase-like site (PSMB6, Homo sapiens, UniProt P28072) | caspase-like activity, inhibitor, purified 20S proteasome |  | pH 7.4, with: 20 µM Z-LLE-AMC | > 1000 µM
Cc1ccc(S(=O)(=O)n2cc(/C=N/NC(=S)Nc3ccc([N+](=O)[O-])cc3)c3ccccc32)cc1 | mushroom tyrosinase | enzyme activity, inhibitor |  | with: L-DOPA substrate | 7.26 ± 0.18 µM
CC1(F)CN(C(=O)Cn2c(=O)c(C(=O)NCc3ccc(Cl)cc3)cc3nc(N4CCNC4=O)cnc32)C1 | KCNH2 | ion current, automated patch clamp |  |  | 38.2 µM
Cn1cc2c(C(=O)O)ccc(NS(=O)(=O)c3ccc(OCC4CCC4)c(Cl)c3)c2n1 | SLC6A4 (Homo sapiens, UniProt P31645) | antagonist |  |  | > 10 µM
COc1ccccc1N1CCN(C(=O)c2ccc(S(=O)(=O)n3cnc(C4CCCCC4)n3)cc2)CC1 | AKR1C3 (Homo sapiens, UniProt P42330) | coumberone reduction | HEK-293T overexpressing AKR1C3 |  | 0.013 µM
CC1(F)CN(C(=O)Cn2c(=O)c(C(=O)NCc3ccc(Cl)cc3)cc3nc(N4CCN(CC(=O)O)C4=O)cnc32)C1 | KCNH2 | ion current, automated patch clamp |  | retest | 22 µM
Cc1ncc(C(=O)N[C@@H](CC(C)C)C(=O)N[C@@H](CC2CCC(C3CCCCC3)CC2)C(=O)N[C@H](/C=C/S(C)(=O)=O)Cc2ccc(CN)cc2)s1 (stereo partly shown) | PSMB6 | competitive ABPP | Raji cell lysate |  | > 10 µM
OC1CCN(c2ccc(/C=N/NC(=S)NCCc3ccccc3)cc2)CC1 | CA1 | enzyme activity, inhibitor |  |  | 0.706 µM
COc1cc2c(cc1OC)C1CC(=O)C(CC(C)C)CN1CC2 (stereo not shown) | SLC18A2 (Homo sapiens, UniProt Q05940) | FFN206 uptake, inhibitor | HEK293 |  | 0.135 µM
O=c1nc(SCc2ccc(C(F)(F)F)cc2)nc(SCc2csc3ccc(Cl)cc23)[nH]1 | TOP2A (Homo sapiens, UniProt P11388) | decatenation, inhibitor |  |  | 6.6 µM
CCCCNCc1ccc2[nH]c3c(C)c4ccncc4c(C)c3c2c1 | Toll-like receptor 3 (Homo sapiens, UniProt O15455) | reporter gene, inhibitor | HEK-Blue hTLR3 | with: poly(I:C) | 0.12 ± 0.04 µM
CC(C)C[C@H](NC(=O)c1ccc(-c2ccccc2)nc1)C(=O)N[C@@H](CC(C)C)C(=O)N[C@H](/C=C/S(C)(=O)=O)Cc1ccc(CN)cc1 | PSMB6 | competitive ABPP | Raji cell lysate |  | > 10 µM
COc1cc(C)c2c(c1C=O)Oc1c(c(C)c(O)c3c1C(O)OC3=O)OC2=O (stereo not shown) | Replicase polyprotein 1ab, 3C-like proteinase (Feline coronavirus, UniProt Q98VG9) | protease activity, inhibitor |  | with: 6 µM fluorogenic substrate | 29.4 ± 4.66 µM
COc1ccc(C[C@H](N)C(=O)N[C@H]2[C@@H](O)[C@H](n3cnc4c(N(C)C)ncnc43)O[C@@H]2CO)cc1 | rat neuron-specific aminopeptidase | enzyme activity, inhibitor |  |  | 1 µM
COc1cc2c(cc1OC)C1CC(=O)C(CC(C)C)CN1CC2 (stereo not shown) | SLC18A2 (Homo sapiens, UniProt Q05940, I308V/L37F/Y433F) | FFN206 uptake, inhibitor, fluorescence imaging |  | L37F/I308V/Y433F mutant, with: FFN206 5 µM | 1.03 µM
Cc1ccc(NC(=O)c2ccc(C)c(C(F)(F)F)c2)cc1C#Cc1nn(C2CCC(O)CC2)c2ncnc(N)c12 (stereo not shown) | CSK | inhibitor, radiometric kinase |  | with: ATP 10 µM | 0.009 µM
CC(C)(C)NC(=O)CC[C@H](NC(=O)C(=O)c1c[nH]c2ccccc12)C(=O)NCc1cccc(B(O)O)c1 | PSMB6 | inhibitor |  |  | > 33.3 µM

Structure (SMILES) | target | assay | system | setting | IC50
COc1ccccc1C(=O)Nc1ccc(-c2nc3ccccc3[nH]2)cc1 | Tyrosine-protein kinase SYK, with FCER1G (SYK, Homo sapiens, UniProt P43405) | inhibitor, TR-FRET |  | counter screen | 18.6 µM
CN1CCN(c2ccc(Nc3ncc4cc(C#N)c(=O)n(C5CCCC5)c4n3)cc2)CC1 | CSK |  |  |  | 0.602 µM
C=CC(=O)Nc1cccc(Oc2nc(Nc3ccc(N4CCN(C)CC4)cc3)nc3ccoc23)c1 | IRAK1 (Homo sapiens, UniProt P51617) |  |  |  | > 5 µM
Cc1ncc(C(=O)N[C@@H](CC2CCC3CCCCC3C2)C(=O)N[C@@H](CC(C)C)C(=O)N[C@H](/C=C/S(C)(=O)=O)Cc2ccc(CN)cc2)s1 (stereo partly shown) | PSMB6 | competitive ABPP | Raji cell lysate |  | > 10 µM
Cc1c(C(=O)O)ccc2c3n(nc12)[C@@H]1[C@H](C3)N(CC2CC2)[C@@]2(C(=O)Nc3cc(Cl)ccc32)[C@H]1c1cccc(Cl)c1F | Protein Mdm4, with p53 (MDM4, Homo sapiens, UniProt O15151, C17S) | MDMX-p53 binding, inhibitor, AlphaScreen |  |  | 7.94 µM
CCc1ccc(/C=N/n2c(C)nc3ccc(C)cc3c2=O)s1 | PLA2G5 | enzyme activity, inhibitor, colorimetric |  |  | 71.3 ± 2.73 µM
Cc1ccc(S(=O)(=O)n2cc(/C=N/NC(=S)Nc3ccccc3F)c3ccccc32)cc1 | mushroom tyrosinase | enzyme activity, inhibitor |  | with: L-DOPA substrate | 10.5 ± 0.19 µM
COc1cc(/C=N/n2c(C)nc3ccc(C)cc3c2=O)cc([N+](=O)[O-])c1O | PLA2G5 | enzyme activity, inhibitor, colorimetric |  |  | 65.4 ± 1.71 µM
CCOC(=O)C(C)(COP(=O)(OC)OCCCCCCNC(=O)c1ccc(C(=O)OC)c(N)c1)C(=O)CSC(C)=O (stereo not shown) | PDE6D (Homo sapiens, UniProt O43924) |  |  |  | 234 µM
Cn1ncc2c(Cl)c(C(=O)NCc3ccccc3)cnc21 | MDH2 (Sus scrofa, UniProt P00346) | enzyme activity, reporter counter-screen |  | native enzyme | > 63 µM
O=c1c2ccccc2c(Cc2ccc(Cl)cc2)nn1C1CCCNCC1 (stereo not shown) | CatSper channel complex (Homo sapiens, UniProt Q7RTX7+Q86XQ3+Q8NEC5+Q96P56) | calcium influx, inhibitor, FLIPR | human sperm | with: high pH, high potassium | 5.1 µM
Cc1ccc(S(=O)(=O)n2cc(/C=N/NC(=S)Nc3ccc(Br)cc3)c3ccccc32)cc1 | mushroom tyrosinase | enzyme activity, inhibitor |  | with: L-DOPA substrate | 25.3 ± 0.38 µM
CC(C)C[C@H](NC(=O)[C@H](Cc1ccccc1)N=[N+]=[N-])C(=O)N[C@@H](CC(C)(C)F)C(=O)N[C@H](/C=C/S(C)(=O)=O)Cc1ccc(CN)cc1 | PSMB6 | competitive ABPP | Raji cell lysate |  | > 10 µM
OC1CCN(c2ccc(/C=N/NC(=S)NCc3ccc(Cl)cc3)cc2)CC1 | CA1 | enzyme activity, inhibitor |  |  | 0.408 µM
Nc1nc2c(ncn2[C@@H]2O[C@H](COP(=O)(O)OP(=O)(O)OP(=O)(O)O)[C@@H](O)[C@H]2O)c(=O)[nH]1 | dGTP triphosphohydrolase (Leeuwenhoekiella blandensis, UniProt A3XHN1) | dGTPase activity, inhibitor, enzyme-coupled |  | with: 1 mM dGTP | ~2300 µM
CCn1c(-c2nc3ccc(C(=O)N4CCCC(N)C4)cc3n2C)cc2ccccc21 (stereo not shown) | CHRNA1 (Homo sapiens, UniProt P02708) | intracellular calcium, antagonist, fluorescence |  |  | 1 µM
COc1ccc2c3c([nH]c2c1)[C@H](CC(C)C)N1C(=O)[C@H](CC(=O)NC(C)C)NC(=O)[C@@H]1C3 | ABCG2 (Homo sapiens, UniProt Q9UNQ0) | inhibitor, item: protoporphyrin IX | A549 | 2 h, with: 1 mM ALA | 0.22 µM and 0.25 µM and 0.307 µM and 0.297 µM
CC[C@@H]1[C@H](F)C(=O)N[C@@H]1COc1nccc2cc(C(N)=O)c(OC)cc12 | STK38 (Homo sapiens, UniProt Q15208) | ATP-site probe binding, ActivX profiling | THP-1 cell lysate | Lys1 site | 0.6 µM
C1=Cc2cccc3cccc1c23 | Cytochrome P450 2A6 (CYP2A6, Homo sapiens, UniProt P11509) | enzyme activity, inhibitor |  | 20 min, pH 7.4 | 33 µM
Cc1nc(F)ccc1-c1cc(Cn2ccn(C)c2=N)cc(C(=O)NCc2ccc(Cl)c(Cl)c2)c1 | WD repeat-containing protein 5, MLL4 complex (WDR5, Homo sapiens, UniProt P61964) | MLL4 methyltransferase activity, inhibitor |  | with: H3 peptide substrate | 5.1 µM
Cc1nn2c(-c3c(C)nn(C)c3-c3ccc(C(F)(F)F)cc3)nc(CO)c2c(=O)[nH]1 | PDE10A (Homo sapiens, UniProt Q9Y233) | enzyme activity, inhibitor, scintillation proximity |  |  | 20.4 µM
Cc1ncc(C(=O)N[C@@H](CC(C)C)C(=O)N[C@@H](CC2CCCCC2)C(=O)N[C@H](/C=C/S(C)(=O)=O)Cc2ccc(CN)cc2)s1 | PSMB6 | competitive ABPP | Raji cell lysate |  | > 10 µM
Cc1ncc(COP(=O)(O)O)c(C=O)c1O | PDX3 (Saccharomyces cerevisiae, UniProt P38075) | PNP oxidase activity, inhibitor |  | with: 4 mM PNP substrate, 0.4 mM FMN | 2400 µM
